Experimental data collected from several papers.
Protocols differ between the studies behind these lines. “And” joins repeats or separate records; there may be more than shown. Numbers after ± are the reported error. ≈ marks a conversion by molar mass, not a printed value.

O=C1CCP(=S)(c2ccccc2)CC1
reduction of cell number (PC-3; trypan blue; IC50, 72 h; baseline: untreated): 98%

COc1cnc(OC)n2nc(NS(=O)(=O)c3c(OCC(F)F)cccc3C(F)(F)F)nc12
inhibition (HEK293T; cytotoxicity, CCK-8; 1.56 µM, 72 h): 0%

C/C=C(/C)C(=O)O[C@H]1C(C)=C2[C@H]([C@@H]1OC(=O)CCCCCCC)[C@@](C)(OC(C)=O)C[C@H](OC(=O)CCC)[C@@]1(O)[C@H]2OC(=O)[C@@]1(C)O
phospho-eIF2α level (HEK293; western blot; 3 µM, 6 h, unit not given; baseline: GAPDH): 0.517 and 0.708 and 0.83

Cc1cccc(-c2cccc(C)n2)n1.Cc1cccc(-c2cccc(C)n2)n1.F[P-](F)(F)(F)(F)F.F[P-](F)(F)(F)(F)F.[Ru+2].c1ccc2cc(-c3nc4c5cccnc5c5ncccc5c4[nH]3)ccc2c1
EC50 (SK-MEL-28; cell viability; normoxia, with: blue light 453 nm, 100 J/cm2): 33.3 ± 1.3 µM

COc1cc([C@@H]2c3cc4c(cc3C[C@H]3COC(=O)[C@@H]32)OCO4)cc(OC)c1OC
PCNA level (neuroblastoma M2 (−); western blot; IC50; baseline: untreated): decreased

Cc1cc(NS(=O)(=O)c2ccc(NC(=O)/C(C#N)=C/c3ccc(N4CCCCC4)cc3)cc2)no1
selectivity index (HCT-116; cytotoxicity, MTT; baseline: HSF over HCT-116 IC50): > 13.8

Cc1cc(C(C)(C)c2ccc(O)c(C)c2)ccc1O
G1 phase cells (HepG2 spheroids; Hoechst flow cytometry; 10 µM, 24 h): 72.7 ± 3.04%

C[C@H]1[C@H](C)CC[C@]2(C(=O)O)CC[C@]3(C)C(=CC[C@@H]4[C@@]5(C)CC[C@H](O)C(C)(C)[C@@H]5CC[C@]43C)[C@H]12
cell survival (3T3; cell growth, MTT; 3.6 µg/mL, 48 h): 82.2 ± 1.2%

COc1ccc2c(c1)[nH]c1c(C)nccc12
DNA methylation (DU-145; bisulfite pyrosequencing, item: RASSF1A promoter CpG site 31; 10 µM, 16 h): 95.4%

Oc1ccc(C(c2ccc(O)cc2)(C(F)(F)F)C(F)(F)F)cc1
G2 phase cells (HepG2 spheroids; Hoechst flow cytometry; 0.1 µM, 24 h): 18.6 ± 2.6%

N.N.[Cl][Pt][Cl]
selectivity ratio (MCF7; irradiated; baseline: IC50 MCF-10A over IC50 MCF7): 1.5

CC(C)=CCc1c(O)cc(O)cc1-c1cc2ccc(O)c(CC=C(C)C)c2o1
cell survival (MCF7; cell growth, MTT; 100 µg/mL, 48 h): 35.87 ± 0.34%

COc1cc(CCC[P+](c2ccccc2)(c2ccccc2)c2ccccc2)c(OC)c2c1OCO2.[I-]
LC50 (Hs-578T; SRB): > -4 log M

NCCc1ccccn1
reversal of trafficking deficit (primary rat hippocampal/cortical neuron-glia cultures; 1 µM, with: 1 µM α-synuclein oligomers): -18.4%

CN1CCN(S(=O)(=O)c2cc([N+](=O)[O-])ccc2N(CCOS(C)(=O)=O)CCOS(C)(=O)=O)CC1
IC50 fold change (sample A B-ALL PDX cells; cell viability; ex vivo; 48 h, with: AKR1C3 inhibitor; baseline: with inhibitor over alone): 57.7

Nc1ncc(-c2nc(N3CCOCC3)nc(N3CCOCC3)n2)c(C(F)F)n1
GI50 (COLO-829; 72 h): 1150 nM

O=C1N(Cc2ccccc2Cl)c2ccccc2C12NN=C(c1ccccc1)S2 (stereo not shown)
fold change (MDA-MB-468; gene expression array, item: DPY30 mRNA; 10 µM, 12 h; baseline: untreated, down): 1.58

CN(C)c1cc(NC(=O)CNC(C)(C)C)c(O)c2c1C[C@H]1C[C@H]3[C@H](N(C)C)C(O)=C(C(N)=O)C(=O)[C@@]3(O)C(O)=C1C2=O
MIC (Escherichia coli DH5α expressing KPC-25; bacterial growth): 0.125 µg/mL (≈ 0.213 µM)

CCN(CC)c1ccc(C=NNC(=O)CSc2nc3ccccc3c(=O)n2Cc2ccc(S(N)(=O)=O)cc2)c(O)c1
CC50 (Hs-578T; NCI five-dose screen): > 100 µM

CC(c1ccccc1)(c1ccc(O)cc1)c1ccc(O)cc1
S phase cells (HepG2 spheroids; Hoechst flow cytometry; 0.01 µM, 96 h): 8.31 ± 1.06%

C[C@]12CC[C@H](O)C[C@H]1CC[C@@H]1[C@@H]2CC[C@]2(C)[C@@H](c3ccc(=O)oc3)CC[C@]12O
ERE reporter activity (MCF7; luciferase; 50 nM, unit not given; baseline: untreated): 0.414 and 0.777 and 0.689

COc1ccc2c(c1)CC[C@@H]1[C@@H]2CC[C@]2(C)[C@@H](NCCCCCCN3C(=O)C=CC3=O)CC[C@@H]12
inhibition (N2a; fluorescence signal, inhibitor; 300 nM, pretreatment, with: BzATP plus UTP 300 µM): ~68%

Oc1cc(O)cc(-c2cc3ccc(O)cc3o2)c1
cell survival (3T3; cell growth, MTT; 50 µg/mL, 48 h): 47.4 ± 0.82%

Cn1cncc1C1=CN(c2ncnc3[nH]cnc23)CCS1
CC50 (MDA-MB-231/ATCC): > 200 µM

COc1c(C)c2c(c(O)c1C/C=C(\C)CCC(=O)O)C(=O)OC2
IC50 (A2780; cell proliferation): 64.6 nM

CC(C)C[C@H](NC(=O)[C@H](CCc1ccccc1)NC(=O)CN1CCOCC1)C(=O)N[C@@H](Cc1ccccc1)C(=O)N[C@@H](CC(C)C)C(=O)[C@@]1(C)CO1
fold change (patient normal conditionally reprogrammed cells; RNA-seq, item: KIF1A mRNA; human; concentration not given; baseline: DMSO): -405

Oc1ccc(C2(c3ccc(O)cc3)c3ccccc3-c3ccccc32)cc1
G1 phase cells (HepG2 spheroids; Hoechst flow cytometry; 40 µM, 24 h): 75.9 ± 2.35%

Nc1ncnc2c1ncn2[C@@H]1O[C@@H]2COP(=O)(O)O[C@H]3[C@@H](O)[C@H](n4cnc5c(=O)[nH]cnc54)O[C@@H]3COP(=O)(O)O[C@H]2[C@H]1O
pathway fold enrichment (HFF-1; RNA sequencing, item: Reactome R-HSA-3560783; downregulated pathway; baseline: Zika virus alone): 14.2

C/C=C(/C)C(=O)O[C@H]1C(C)=C2[C@H]([C@@H]1OC(=O)CCCCCCC)[C@@](C)(OC(C)=O)C[C@H](OC(=O)CCC)[C@@]1(O)[C@H]2OC(=O)[C@@]1(C)O
normalized enrichment score (HEK-293T; RNA-seq GSEA, item: Hallmark unfolded protein response; 500 nM, 6 h; direction not given): 2.9

CN1CCN(C2(CNC3CCN(c4cccc(-c5cc6cc(F)ccc6[nH]5)c4)CC3)CCC2)CC1
GI50 (CCRF-CEM): 498 nM

COc1ccc([C@H]2c3[nH]c4ccc(Cl)cc4c3CCN2C(=O)Oc2ccc(Cl)cc2)cc1
inhibition (CD19+ B cells with PBMC; cytokine secretion, item: TNF-α; 0.1 µM, 72 h, BioMAP BT system): 66%

Oc1cc(Cl)ccc1Oc1ccc(Cl)cc1Cl
point of departure (HepG2; high content imaging, item: DNA structure; 24 h, distribution mode 1): 0.977 µM

COc1cc(N2CC[C@@]3(O)C(=O)c4cc(C)c(C)cc4N=C23)ccn1
maximal inhibition (COS-7; cytokinesis): ~100%

CC(C)N1CCC(NC2CCN(c3cccc(-c4cc5cc(F)ccc5[nH]4)c3)CC2)CC1
TGI (786-0): 3.26 µM

COc1c(CCC[P+](c2ccccc2)(c2ccccc2)c2ccccc2)cc2c(c1OC)OCO2.[I-]
LC50 (BT-549; SRB): > -4 log M

Cc1nn(-c2nc3ccc(Cl)c(Cl)c3[nH]2)c(O)c1C1OC(=O)c2ccccc21 (stereo not shown)
viability (RAW-ISG; CCK-8; 0.3 µM): 103% and 111% and 98.2% and 108% and 102%

Cn1nccc1Nc1nccc(-c2cc3c(s2)C(C)(C)N(CCN2CCOCC2)C3=O)n1
PI-positive cells (HCT116; IncuCyte; concentration not given, 44 (unit not given)): 32 count and 31.3 count and 20.6 count

Excerpt of the above:
COc1ccc([C@H]2c3[nH]c4ccc(Cl)cc4c3CCN2C(=O)Oc2ccc(Cl)cc2)cc1
inhibition (CD19+ B cells with PBMC; cytokine secretion, item: TNF-α; 0.1 µM, 72 h, BioMAP BT system): 66%

Oc1cc(Cl)ccc1Oc1ccc(Cl)cc1Cl
point of departure (HepG2; high content imaging, item: DNA structure; 24 h, distribution mode 1): 0.977 µM

COc1cc(N2CC[C@@]3(O)C(=O)c4cc(C)c(C)cc4N=C23)ccn1
maximal inhibition (COS-7; cytokinesis): ~100%

CC(C)N1CCC(NC2CCN(c3cccc(-c4cc5cc(F)ccc5[nH]4)c3)CC2)CC1
TGI (786-0): 3.26 µM

COc1c(CCC[P+](c2ccccc2)(c2ccccc2)c2ccccc2)cc2c(c1OC)OCO2.[I-]
LC50 (BT-549; SRB): > -4 log M

Cc1nn(-c2nc3ccc(Cl)c(Cl)c3[nH]2)c(O)c1C1OC(=O)c2ccccc21 (stereo not shown)
viability (RAW-ISG; CCK-8; 0.3 µM): 103% and 111% and 98.2% and 108% and 102%
